Published values gathered from unrelated publications.
A part holds a random share of what one study measured. Several values in a cell are separate wells, animals, samples, runs or records.
Chain of UniProt Q9UQM7 (whole entry, looked up): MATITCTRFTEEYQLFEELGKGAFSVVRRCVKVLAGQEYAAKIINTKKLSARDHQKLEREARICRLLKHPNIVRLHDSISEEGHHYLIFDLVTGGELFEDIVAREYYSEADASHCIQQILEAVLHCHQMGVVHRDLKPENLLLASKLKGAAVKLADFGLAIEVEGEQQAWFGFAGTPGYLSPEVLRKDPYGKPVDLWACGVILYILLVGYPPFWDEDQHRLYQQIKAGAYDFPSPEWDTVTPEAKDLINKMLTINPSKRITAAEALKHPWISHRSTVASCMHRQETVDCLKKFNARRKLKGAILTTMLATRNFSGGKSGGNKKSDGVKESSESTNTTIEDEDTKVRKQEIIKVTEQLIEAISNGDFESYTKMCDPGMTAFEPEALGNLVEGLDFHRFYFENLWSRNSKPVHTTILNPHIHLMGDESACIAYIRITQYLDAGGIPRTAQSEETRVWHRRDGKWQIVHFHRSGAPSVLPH
Chain of UniProt P10721 (whole entry, unmodified, looked up): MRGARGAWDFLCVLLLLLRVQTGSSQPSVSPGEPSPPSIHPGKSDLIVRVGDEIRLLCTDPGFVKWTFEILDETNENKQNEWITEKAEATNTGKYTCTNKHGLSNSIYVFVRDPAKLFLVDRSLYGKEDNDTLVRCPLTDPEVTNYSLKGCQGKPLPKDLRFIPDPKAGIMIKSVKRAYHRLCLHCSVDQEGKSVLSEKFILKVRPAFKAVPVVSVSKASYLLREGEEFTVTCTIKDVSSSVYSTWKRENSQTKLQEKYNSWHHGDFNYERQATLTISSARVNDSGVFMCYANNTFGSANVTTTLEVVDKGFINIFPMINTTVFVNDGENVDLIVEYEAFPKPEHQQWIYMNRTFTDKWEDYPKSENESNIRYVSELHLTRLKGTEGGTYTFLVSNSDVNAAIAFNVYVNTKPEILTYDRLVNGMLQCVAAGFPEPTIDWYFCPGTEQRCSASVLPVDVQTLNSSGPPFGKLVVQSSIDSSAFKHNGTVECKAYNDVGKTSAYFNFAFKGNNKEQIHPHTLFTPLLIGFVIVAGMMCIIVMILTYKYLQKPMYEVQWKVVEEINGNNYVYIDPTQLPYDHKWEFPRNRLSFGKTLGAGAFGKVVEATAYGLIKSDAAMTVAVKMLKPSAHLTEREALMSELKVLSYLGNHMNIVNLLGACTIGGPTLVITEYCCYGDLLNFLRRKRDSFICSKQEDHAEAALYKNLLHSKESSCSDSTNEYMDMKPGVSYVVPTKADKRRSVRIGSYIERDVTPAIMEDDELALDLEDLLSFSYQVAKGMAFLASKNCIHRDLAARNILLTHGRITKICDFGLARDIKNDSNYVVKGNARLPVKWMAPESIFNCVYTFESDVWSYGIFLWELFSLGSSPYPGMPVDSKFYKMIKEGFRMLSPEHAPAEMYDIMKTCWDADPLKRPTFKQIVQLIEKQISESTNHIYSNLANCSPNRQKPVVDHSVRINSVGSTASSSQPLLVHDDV
Chain of UniProt P49759 (whole entry, looked up): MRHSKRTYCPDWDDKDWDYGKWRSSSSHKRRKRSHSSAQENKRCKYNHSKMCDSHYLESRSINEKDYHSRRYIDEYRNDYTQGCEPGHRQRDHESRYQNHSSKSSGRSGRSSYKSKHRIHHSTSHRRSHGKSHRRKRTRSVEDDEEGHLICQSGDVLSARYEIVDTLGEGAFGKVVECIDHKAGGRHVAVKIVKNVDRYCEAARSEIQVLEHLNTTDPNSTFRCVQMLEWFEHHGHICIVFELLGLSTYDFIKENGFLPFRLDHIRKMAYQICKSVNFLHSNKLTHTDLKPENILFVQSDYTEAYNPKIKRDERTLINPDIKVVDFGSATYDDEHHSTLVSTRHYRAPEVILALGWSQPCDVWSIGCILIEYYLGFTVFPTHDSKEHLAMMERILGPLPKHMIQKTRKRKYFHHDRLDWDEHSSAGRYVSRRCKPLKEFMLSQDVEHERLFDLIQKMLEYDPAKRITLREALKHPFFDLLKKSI
Chain of UniProt Q16620 (whole entry, looked up): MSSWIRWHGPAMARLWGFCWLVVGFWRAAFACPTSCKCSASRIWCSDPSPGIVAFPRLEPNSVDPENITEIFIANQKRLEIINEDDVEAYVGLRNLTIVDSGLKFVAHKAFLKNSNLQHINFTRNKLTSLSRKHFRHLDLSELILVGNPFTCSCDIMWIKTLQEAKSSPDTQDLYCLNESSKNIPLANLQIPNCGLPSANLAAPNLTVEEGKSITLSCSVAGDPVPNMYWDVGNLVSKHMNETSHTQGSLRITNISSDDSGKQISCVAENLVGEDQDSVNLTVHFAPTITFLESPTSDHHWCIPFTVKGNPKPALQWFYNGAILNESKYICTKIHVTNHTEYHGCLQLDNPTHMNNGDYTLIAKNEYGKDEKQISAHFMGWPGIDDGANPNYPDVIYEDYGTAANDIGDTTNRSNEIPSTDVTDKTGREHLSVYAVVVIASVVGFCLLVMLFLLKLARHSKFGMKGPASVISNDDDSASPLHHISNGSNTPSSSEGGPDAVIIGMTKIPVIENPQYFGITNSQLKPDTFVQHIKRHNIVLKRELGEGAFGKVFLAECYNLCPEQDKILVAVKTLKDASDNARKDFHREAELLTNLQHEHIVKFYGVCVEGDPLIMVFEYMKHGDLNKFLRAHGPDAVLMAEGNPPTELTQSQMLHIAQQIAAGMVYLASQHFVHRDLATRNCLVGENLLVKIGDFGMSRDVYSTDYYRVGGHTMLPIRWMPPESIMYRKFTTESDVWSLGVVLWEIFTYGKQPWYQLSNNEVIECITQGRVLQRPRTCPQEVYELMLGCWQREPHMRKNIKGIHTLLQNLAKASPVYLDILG
Chain of UniProt P04049 (whole entry, looked up): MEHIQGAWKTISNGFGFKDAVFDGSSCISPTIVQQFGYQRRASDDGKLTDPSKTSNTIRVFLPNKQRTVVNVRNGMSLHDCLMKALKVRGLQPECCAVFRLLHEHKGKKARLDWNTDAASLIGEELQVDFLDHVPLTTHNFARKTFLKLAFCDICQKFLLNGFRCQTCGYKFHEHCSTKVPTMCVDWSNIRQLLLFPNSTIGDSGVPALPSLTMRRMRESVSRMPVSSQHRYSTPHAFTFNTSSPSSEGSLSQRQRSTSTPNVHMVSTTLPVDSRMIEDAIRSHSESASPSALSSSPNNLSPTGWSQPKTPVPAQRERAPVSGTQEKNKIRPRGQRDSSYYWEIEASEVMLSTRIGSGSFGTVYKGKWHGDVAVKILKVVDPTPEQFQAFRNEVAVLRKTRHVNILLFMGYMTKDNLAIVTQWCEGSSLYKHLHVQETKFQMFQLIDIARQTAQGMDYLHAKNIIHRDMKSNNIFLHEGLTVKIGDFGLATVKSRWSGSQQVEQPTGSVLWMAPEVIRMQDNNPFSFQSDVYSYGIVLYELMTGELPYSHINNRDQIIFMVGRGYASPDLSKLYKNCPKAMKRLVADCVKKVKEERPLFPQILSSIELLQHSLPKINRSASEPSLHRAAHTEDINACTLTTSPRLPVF

Series 1
Structure (SMILES): Cc1nc(C2CCN(C(=O)c3ccc(OC(F)(F)F)cc3N)CC2)c2ncc(N3CCN(C)CC3)cc2n1
Effect on: cell-free assay
Technique: competition with immobilised ligand
Concentration: 1 µM
Quantity: remaining binding
Hepatocyte growth factor receptor (MET, Homo sapiens, UniProt P08581): 94%
Serine/threonine-protein kinase Nek11 (NEK11, Homo sapiens, UniProt Q8NG66): 100%
Mast/stem cell growth factor receptor Kit (KIT, Homo sapiens, UniProt P10721): 90%
Rho-associated protein kinase 1 (ROCK1, Homo sapiens, UniProt Q13464): 100%
Homeodomain-interacting protein kinase 2 (HIPK2, Homo sapiens, UniProt Q9H2X6): 93%
Tyrosine-protein kinase ABL1, phosphorylated (ABL1, Homo sapiens, UniProt P00519, M351T): 100%
Ribosomal protein S6 kinase alpha-3, N-terminal kinase domain (RPS6KA3, Homo sapiens, UniProt P51812): 100%
Ephrin type-B receptor 1 (EPHB1, Homo sapiens, UniProt P54762): 95%
Serine/threonine-protein kinase NLK (NLK, Homo sapiens, UniProt Q9UBE8): 100%
Phosphatidylinositol 4,5-bisphosphate 3-kinase catalytic subunit alpha isoform (PIK3CA, Homo sapiens, UniProt P42336, H1047Y): 69%
Tyrosine-protein kinase ABL1, non-phosphorylated (ABL1, Homo sapiens, UniProt P00519, H396P): 78%
RAF proto-oncogene serine/threonine-protein kinase (RAF1, Homo sapiens, UniProt P04049): 77%
Mast/stem cell growth factor receptor Kit (KIT, Homo sapiens, UniProt P10721, V559D/V654A): 100%
TRAF2 and NCK-interacting protein kinase (TNIK, Homo sapiens, UniProt Q9UKE5): 100%
Epidermal growth factor receptor (EGFR, Homo sapiens, UniProt P00533, G719S): 100%
Dual specificity protein kinase CLK1 (CLK1, Homo sapiens, UniProt P49759): 100%
Calcium/calmodulin-dependent protein kinase type II subunit alpha (CAMK2A, Homo sapiens, UniProt Q9UQM7): 93%
Epidermal growth factor receptor (EGFR, Homo sapiens, UniProt P00533, del752-759): 49%
BDNF/NT-3 growth factors receptor (NTRK2, Homo sapiens, UniProt Q16620): 100%
Serine/threonine-protein kinase DCLK3 (DCLK3, Homo sapiens, UniProt Q9C098): 98%
Tyrosine-protein kinase Srms (SRMS, Homo sapiens, UniProt Q9H3Y6): 100%
Protein kinase C delta type (PRKCD, Homo sapiens, UniProt Q05655): 100%
Phosphatidylinositol 4,5-bisphosphate 3-kinase catalytic subunit delta isoform (PIK3CD, Homo sapiens, UniProt O00329): 78%
Dual specificity protein kinase CLK4 (CLK4, Homo sapiens, UniProt Q9HAZ1): 97%
Serine/threonine-protein kinase BRSK1 (BRSK1, Homo sapiens, UniProt Q8TDC3): 100%

Series 2
Target: Calcium/calmodulin-dependent protein kinase type II subunit alpha (CAMK2A, Homo sapiens, UniProt Q9UQM7)
Effect on: enzyme activity
Action: inhibitor
Concentration: 10 µM
Quantity: inhibition
Cc1cc(CC(C)CC(C)(C)C)n(O)c(=O)c1 (centres unmarked): -7%
CN1CCCN=C1/C=C/c1cccs1: -5%
C[C@H](CCC(=O)O)[C@H]1CC[C@H]2[C@@H]3C(=O)C[C@@H]4C[C@H](O)CC[C@]4(C)[C@H]3CC[C@]12C: 1%
C=C1CC[C@@]2(OC1)O[C@H]1C[C@H]3[C@@H]4CC=C5C[C@@H](O)C[C@@H](O)[C@]5(C)[C@H]4CC[C@]3(C)[C@H]1[C@@H]2C: 32%
Cc1ccn(-c2cc(Cl)ccc2[C@@H](Oc2cc(-c3ccc(C[C@H](N)C(=O)O)cc3)nc(N)n2)C(F)(F)F)n1: -4%
COc1ccc(-c2cc(=O)c3c(OC)cc(OC)c(OC)c3o2)cc1: -18%
C=C1C(=O)O[C@@H]2/C=C(\C)[C@@H](OC(C)=O)C/C=C(\COC(C)=O)C[C@@H](OC(=O)/C(C)=C/CO)[C@@H]12: -0.09% and -0.27%
CCCC(=O)O[C@]1(C(=O)COC(C)=O)CC[C@H]2[C@@H]3C[C@H](F)C4=CC(=O)C=C[C@]4(C)[C@@]3(F)[C@@H](O)C[C@@]21C: 3%
CN(C)CC/C=C1/c2ccccc2COc2ccc(CC(=O)O)cc21: 2%
Cc1c(Cl)c(C)[n+]([O-])c(Cl)c1-c1noc(-c2cc(O)c(O)c([N+](=O)[O-])c2)n1: 9%
COc1ccc(C(=O)O)cc1O: -43%
C[C@]12CCCN1CC1=NNC(=O)c3cc(F)cc4[nH]c2c1c34: -4%
CC[C@H]1OC(=O)[C@H](C)[C@@H](O[C@H]2C[C@@](C)(OC)[C@@H](O)[C@H](C)O2)[C@H](C)[C@@H](O[C@@H]2O[C@H](C)C[C@H](N(C)C)[C@H]2O)[C@](C)(O)C[C@@H](C)[C@@H]2N[C@@H](COCCOC)O[C@H]([C@H]2C)[C@]1(C)O: -8%

Series 3
Structure (SMILES): Cc1nc(Nc2ncc(C(=O)Nc3c(C)cccc3Cl)s2)cc(N2CCN(CCO)CC2)n1
Action: inhibitor
Quantity: inhibition
Tyrosine-protein kinase Fgr (FGR, Homo sapiens, UniProt P09769); 10 µM: 100%
Tyrosine-protein kinase JAK3 (JAK3, Homo sapiens, UniProt P52333); 10 µM: < 50%
Ephrin type-A receptor 4 (EPHA4, Homo sapiens, UniProt P54764); 10 µM: 100%
Cyclin-dependent kinase 19 (CDK19, Homo sapiens, UniProt Q9BWU1); 10 µM: < 50%
Mitogen-activated protein kinase 10 (MAPK10, Homo sapiens, UniProt P53779); 10 µM: < 50%
LIM domain kinase 2 (LIMK2, Homo sapiens, UniProt P53671); 10 µM: 100%
Activin receptor type-1-like (ACVRL1, Homo sapiens, UniProt P37023); 10 µM: 90%
Serine/threonine-protein kinase ULK2 (ULK2, Homo sapiens, UniProt Q8IYT8); 1 µM: < 50%
Casein kinase I isoform delta (CSNK1D, Homo sapiens, UniProt P48730); 1 µM: < 50%
Tyrosine-protein kinase ITK/TSK (ITK, Homo sapiens, UniProt Q08881); 10 µM: < 50%
Serine/threonine-protein kinase PLK4 (PLK4, Homo sapiens, UniProt O00444); 10 µM: < 50%

Series 4
Target: Vascular endothelial growth factor receptor 3 (FLT4, Homo sapiens, UniProt P35916)
Chain of UniProt P35916 (whole entry, looked up): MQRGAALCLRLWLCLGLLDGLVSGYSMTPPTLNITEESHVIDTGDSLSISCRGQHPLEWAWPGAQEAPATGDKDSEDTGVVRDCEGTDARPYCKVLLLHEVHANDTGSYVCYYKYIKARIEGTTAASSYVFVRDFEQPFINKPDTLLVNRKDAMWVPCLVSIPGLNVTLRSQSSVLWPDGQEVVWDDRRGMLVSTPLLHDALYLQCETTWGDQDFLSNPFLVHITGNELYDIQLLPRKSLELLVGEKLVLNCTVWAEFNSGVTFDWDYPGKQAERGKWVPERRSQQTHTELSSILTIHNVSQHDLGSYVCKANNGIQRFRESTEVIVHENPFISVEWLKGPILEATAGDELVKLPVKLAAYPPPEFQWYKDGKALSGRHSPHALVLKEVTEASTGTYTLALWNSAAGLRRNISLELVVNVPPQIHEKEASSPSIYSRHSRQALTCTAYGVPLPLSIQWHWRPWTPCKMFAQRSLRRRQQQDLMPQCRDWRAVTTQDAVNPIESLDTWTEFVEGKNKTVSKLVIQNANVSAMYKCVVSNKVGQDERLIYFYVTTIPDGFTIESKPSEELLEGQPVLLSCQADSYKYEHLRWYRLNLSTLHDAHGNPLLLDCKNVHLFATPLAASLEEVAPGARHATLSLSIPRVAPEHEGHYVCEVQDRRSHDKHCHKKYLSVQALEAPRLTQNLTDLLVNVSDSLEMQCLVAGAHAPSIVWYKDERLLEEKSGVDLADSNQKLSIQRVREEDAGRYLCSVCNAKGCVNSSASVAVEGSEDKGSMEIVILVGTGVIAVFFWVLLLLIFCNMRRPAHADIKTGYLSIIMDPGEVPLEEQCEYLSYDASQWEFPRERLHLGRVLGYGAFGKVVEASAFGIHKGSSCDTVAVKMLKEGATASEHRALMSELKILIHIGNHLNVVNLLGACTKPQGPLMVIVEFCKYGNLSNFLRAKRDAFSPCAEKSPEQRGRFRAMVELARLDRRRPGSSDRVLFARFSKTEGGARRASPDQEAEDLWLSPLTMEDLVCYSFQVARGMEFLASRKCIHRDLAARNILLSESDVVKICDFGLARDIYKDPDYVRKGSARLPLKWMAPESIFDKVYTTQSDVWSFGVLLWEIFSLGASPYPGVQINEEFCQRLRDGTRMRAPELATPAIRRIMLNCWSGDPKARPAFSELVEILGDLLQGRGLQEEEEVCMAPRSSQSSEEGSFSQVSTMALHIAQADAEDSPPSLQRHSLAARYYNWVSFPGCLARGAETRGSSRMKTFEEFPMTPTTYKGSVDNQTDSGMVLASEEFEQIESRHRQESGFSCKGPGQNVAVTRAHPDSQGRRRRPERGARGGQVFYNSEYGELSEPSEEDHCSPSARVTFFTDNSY
Effect on: enzyme activity
Action: inhibitor
Concentration: 0.5 µM
Reference: control
Quantity: remaining activity
O=C(Nc1cccc(Nc2nccc(Nc3cccc(C(F)(F)F)c3)n2)c1)C1CC1: 95.9%
COc1cc2ncnc(Nc3ccc(O)c(Br)c3)c2cc1OC: 48.5%
c1ccc(-c2cnc(Nc3ccc(OCCN4CCCC4)cc3)s2)cc1: 64.4%
Cc1cn(-c2cc(NC(=O)c3ccc(C)c(Nc4nccc(-c5cccnc5)n4)c3)cc(C(F)(F)F)c2)cn1: 91.7%
c1ccc(-c2[nH]ncc2-c2ccnc3ccccc23)nc1: 92.2%
Cc1cc2ncc(-c3ccccc3)nc2cc1C: 115%
N#Cc1c(NC(=O)c2cccc3ccccc23)sc2c1CCCC2: 89.8%
N#C/C(=C\c1ccc(O)c(O)c1)C(=O)NCc1ccccc1: 87.7%
Cn1nc2c3c(cccc31)C(=O)c1ccccc1-2: 86.8%
COc1cc2c(cc1OC)-c1[nH]nc(Nc3cccc(F)c3)c1C2: 82.6%
Ic1cccc(CSc2nnc(-c3ccncc3)o2)c1: 96.2%
CN(C)C[C@H]1CCn2c(c(C3=C(c4cn(C)c5ccccc45)C(=O)NC3=O)c3ccccc32)C1: 114%
CN([C@@H](Cc1ccc(OS(=O)(=O)c2cccc3cnccc23)cc1)C(=O)N1CCN(c2ccccc2)CC1)S(=O)(=O)c1cccc2cnccc12: 90.5%
O=C1c2ccccc2-c2n[nH]c3cccc1c23: 63.6%
Nc1cccc(-c2cc3c(Oc4cccc(O)c4)ncnc3[nH]2)c1: 15.8%
CCN(CC)C(=O)c1ccc(Nc2nc(OCC3CCCCC3)c3[nH]cnc3n2)cc1: 25.9%
C[C@@H]1CCN(C(=O)CC#N)C[C@@H]1N(C)c1ncnc2[nH]ccc12: 97.5%
CCOc1nc(NC(=O)Cc2cc(OC)ccc2OC)cc(N)c1C#N: 92.3%
O=C1C(Cl)=C(N2C(=O)CCC2=O)C(=O)c2ccccc21: 102%
Cc1nc2cc3nc(-c4cccs4)cnc3cc2n1C: 86.2%
O=c1cc(-c2cccc3c2Sc2ccccc2S3)oc(N2CCOCC2)c1: 104%
COc1cc2ncnc(Nc3cccc(Cl)c3)c2cc1OC: 99.3%
CCN(CC)CCNC(=O)c1c(C)[nH]c(/C=C2\C(=O)Nc3ccc(Cl)cc32)c1C: 12.1%
CCN(CC)CCNC(=O)c1c(C)[nH]c(/C=C2\C(=O)Nc3ccc(F)cc32)c1C: 17.4%
O=C(NC(NC(=S)Nc1ccc(F)c([N+](=O)[O-])c1)C(Cl)(Cl)Cl)C(c1ccccc1)c1ccccc1 (centres unmarked): 102%

Some of these lines once more (series 4):
c1ccc(-c2[nH]ncc2-c2ccnc3ccccc23)nc1: 92.2%
O=C1C(Cl)=C(N2C(=O)CCC2=O)C(=O)c2ccccc21: 102%
Cn1nc2c3c(cccc31)C(=O)c1ccccc1-2: 86.8%
Ic1cccc(CSc2nnc(-c3ccncc3)o2)c1: 96.2%
CCOc1nc(NC(=O)Cc2cc(OC)ccc2OC)cc(N)c1C#N: 92.3%
O=C(Nc1cccc(Nc2nccc(Nc3cccc(C(F)(F)F)c3)n2)c1)C1CC1: 95.9%
O=c1cc(-c2cccc3c2Sc2ccccc2S3)oc(N2CCOCC2)c1: 104%
CCN(CC)C(=O)c1ccc(Nc2nc(OCC3CCCCC3)c3[nH]cnc3n2)cc1: 25.9%
